# Results from different studies.
# Protocols differ between the studies behind these lines. Several values in a cell are separate wells, animals, samples, runs or records.
# PPARA ligand-binding domain: Peroxisome proliferator-activated receptor alpha, ligand-binding domain (PPARA, Homo sapiens, UniProt Q07869)
# Chain of UniProt Q07869 (whole entry, looked up): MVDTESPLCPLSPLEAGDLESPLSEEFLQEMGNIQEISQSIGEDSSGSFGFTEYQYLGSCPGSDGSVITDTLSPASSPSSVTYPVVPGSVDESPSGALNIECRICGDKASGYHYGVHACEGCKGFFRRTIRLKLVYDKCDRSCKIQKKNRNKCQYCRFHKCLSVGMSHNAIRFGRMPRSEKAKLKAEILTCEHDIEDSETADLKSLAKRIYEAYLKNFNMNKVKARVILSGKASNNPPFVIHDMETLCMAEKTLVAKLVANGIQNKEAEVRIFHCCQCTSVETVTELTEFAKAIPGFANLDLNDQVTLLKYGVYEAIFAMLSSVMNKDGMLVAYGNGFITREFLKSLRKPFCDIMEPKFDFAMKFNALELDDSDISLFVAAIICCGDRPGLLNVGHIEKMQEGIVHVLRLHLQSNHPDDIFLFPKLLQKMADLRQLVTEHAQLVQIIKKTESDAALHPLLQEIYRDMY
# GBA2: Beta-glucosidase (GBA2, Homo sapiens, UniProt Q9HCG7)
# Chain of UniProt Q9HCG7 (whole entry, looked up): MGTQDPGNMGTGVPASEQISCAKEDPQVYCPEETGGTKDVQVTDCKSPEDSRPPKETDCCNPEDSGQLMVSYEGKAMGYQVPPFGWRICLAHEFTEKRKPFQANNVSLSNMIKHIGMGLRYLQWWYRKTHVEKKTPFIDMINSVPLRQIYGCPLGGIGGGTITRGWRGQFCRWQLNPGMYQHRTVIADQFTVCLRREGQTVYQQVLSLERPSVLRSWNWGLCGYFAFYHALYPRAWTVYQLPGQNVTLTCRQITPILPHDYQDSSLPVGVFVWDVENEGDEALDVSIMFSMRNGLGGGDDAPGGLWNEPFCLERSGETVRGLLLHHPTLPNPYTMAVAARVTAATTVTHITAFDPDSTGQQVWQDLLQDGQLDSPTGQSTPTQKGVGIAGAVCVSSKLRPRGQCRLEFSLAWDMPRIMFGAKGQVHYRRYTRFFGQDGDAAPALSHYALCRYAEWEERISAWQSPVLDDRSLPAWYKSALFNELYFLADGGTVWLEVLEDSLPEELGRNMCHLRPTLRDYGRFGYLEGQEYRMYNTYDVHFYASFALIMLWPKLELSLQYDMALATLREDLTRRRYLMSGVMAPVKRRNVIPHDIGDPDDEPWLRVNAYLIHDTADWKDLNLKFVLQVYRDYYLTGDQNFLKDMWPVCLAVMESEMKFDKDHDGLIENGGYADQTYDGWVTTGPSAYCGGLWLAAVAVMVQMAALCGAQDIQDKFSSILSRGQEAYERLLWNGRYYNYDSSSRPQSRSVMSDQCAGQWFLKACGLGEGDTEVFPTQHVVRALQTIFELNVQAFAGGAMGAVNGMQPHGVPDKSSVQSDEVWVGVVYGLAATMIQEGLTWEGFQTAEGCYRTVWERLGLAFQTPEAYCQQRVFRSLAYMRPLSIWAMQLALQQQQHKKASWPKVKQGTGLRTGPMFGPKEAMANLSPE
# Chymotrypsinogen A: Chymotrypsinogen A (Bos taurus, UniProt P00766)
# Sensor histidine kinase AirS: Sensor histidine kinase AirS (Staphylococcus aureus, UniProt Q2FX96)
# CHEK1: Serine/threonine-protein kinase Chk1 (CHEK1, Homo sapiens, UniProt O14757)
# Chain of UniProt O14757 (whole entry, looked up): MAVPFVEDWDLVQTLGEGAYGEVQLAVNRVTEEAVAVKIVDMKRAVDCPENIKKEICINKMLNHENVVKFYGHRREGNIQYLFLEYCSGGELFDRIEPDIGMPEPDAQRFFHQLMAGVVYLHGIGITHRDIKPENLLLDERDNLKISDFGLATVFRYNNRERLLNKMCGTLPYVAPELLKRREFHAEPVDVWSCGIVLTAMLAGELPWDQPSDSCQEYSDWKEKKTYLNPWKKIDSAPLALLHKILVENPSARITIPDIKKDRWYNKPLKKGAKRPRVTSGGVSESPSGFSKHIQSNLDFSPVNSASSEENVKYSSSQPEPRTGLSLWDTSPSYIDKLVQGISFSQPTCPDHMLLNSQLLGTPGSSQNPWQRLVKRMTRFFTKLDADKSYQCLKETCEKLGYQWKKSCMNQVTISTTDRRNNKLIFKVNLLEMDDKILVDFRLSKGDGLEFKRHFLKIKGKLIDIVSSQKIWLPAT
# PIK3CG: Phosphatidylinositol 4,5-bisphosphate 3-kinase catalytic subunit gamma isoform (PIK3CG, Homo sapiens, UniProt P48736)
# Chain of UniProt P00591 (whole entry, looked up): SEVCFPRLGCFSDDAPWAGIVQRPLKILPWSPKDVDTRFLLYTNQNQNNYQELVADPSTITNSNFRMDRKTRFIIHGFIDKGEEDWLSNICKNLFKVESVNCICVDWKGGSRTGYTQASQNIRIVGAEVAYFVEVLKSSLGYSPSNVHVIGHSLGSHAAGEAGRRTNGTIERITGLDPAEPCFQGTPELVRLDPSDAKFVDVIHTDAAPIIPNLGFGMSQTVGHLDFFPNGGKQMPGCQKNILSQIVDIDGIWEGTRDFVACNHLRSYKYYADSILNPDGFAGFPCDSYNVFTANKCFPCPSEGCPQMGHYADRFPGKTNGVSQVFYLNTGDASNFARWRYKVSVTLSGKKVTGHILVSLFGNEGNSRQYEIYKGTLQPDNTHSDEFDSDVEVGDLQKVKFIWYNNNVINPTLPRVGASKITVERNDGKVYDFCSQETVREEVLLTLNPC
# Chain of UniProt P48736 (whole entry, looked up): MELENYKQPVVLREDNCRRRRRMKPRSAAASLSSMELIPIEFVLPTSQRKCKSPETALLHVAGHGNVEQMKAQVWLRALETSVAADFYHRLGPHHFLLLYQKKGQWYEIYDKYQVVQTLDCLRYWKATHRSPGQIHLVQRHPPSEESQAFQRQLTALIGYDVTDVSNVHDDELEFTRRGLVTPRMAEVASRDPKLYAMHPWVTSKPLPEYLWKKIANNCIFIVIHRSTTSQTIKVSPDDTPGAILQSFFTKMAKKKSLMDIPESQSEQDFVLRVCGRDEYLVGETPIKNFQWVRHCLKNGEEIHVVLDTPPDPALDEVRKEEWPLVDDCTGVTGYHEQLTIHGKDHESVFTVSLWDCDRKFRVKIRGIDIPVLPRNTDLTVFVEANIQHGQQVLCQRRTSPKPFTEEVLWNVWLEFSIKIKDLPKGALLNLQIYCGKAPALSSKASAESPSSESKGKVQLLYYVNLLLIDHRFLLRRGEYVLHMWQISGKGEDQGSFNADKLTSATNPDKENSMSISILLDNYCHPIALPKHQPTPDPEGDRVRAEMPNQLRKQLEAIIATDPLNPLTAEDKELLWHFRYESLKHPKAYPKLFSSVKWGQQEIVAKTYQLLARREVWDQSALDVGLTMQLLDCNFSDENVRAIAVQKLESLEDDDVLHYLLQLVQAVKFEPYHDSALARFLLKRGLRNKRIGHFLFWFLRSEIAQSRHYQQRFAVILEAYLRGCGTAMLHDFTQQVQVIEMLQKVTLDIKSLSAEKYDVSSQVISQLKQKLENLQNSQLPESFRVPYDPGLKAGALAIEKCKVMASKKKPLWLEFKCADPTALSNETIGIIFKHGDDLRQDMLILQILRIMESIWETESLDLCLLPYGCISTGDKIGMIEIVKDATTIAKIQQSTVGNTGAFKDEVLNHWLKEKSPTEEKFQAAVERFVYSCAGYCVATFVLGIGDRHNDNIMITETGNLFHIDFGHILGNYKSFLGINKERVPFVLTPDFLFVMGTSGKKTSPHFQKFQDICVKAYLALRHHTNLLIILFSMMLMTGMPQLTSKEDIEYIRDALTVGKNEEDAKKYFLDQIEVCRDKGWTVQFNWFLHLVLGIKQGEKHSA
# Chain of UniProt P15291 (whole entry, looked up): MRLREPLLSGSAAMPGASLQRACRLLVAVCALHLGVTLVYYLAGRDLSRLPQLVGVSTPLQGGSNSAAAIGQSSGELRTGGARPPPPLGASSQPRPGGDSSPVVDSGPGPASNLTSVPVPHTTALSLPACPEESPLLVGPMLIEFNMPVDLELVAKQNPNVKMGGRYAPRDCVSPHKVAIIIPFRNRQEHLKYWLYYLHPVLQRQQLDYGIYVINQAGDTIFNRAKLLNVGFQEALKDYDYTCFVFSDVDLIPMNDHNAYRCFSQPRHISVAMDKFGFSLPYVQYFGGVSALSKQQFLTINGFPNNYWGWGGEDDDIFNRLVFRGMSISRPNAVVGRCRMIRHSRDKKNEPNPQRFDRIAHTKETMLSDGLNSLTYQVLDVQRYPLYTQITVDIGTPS
# Chain of UniProt Q8TBX8 (whole entry, looked up): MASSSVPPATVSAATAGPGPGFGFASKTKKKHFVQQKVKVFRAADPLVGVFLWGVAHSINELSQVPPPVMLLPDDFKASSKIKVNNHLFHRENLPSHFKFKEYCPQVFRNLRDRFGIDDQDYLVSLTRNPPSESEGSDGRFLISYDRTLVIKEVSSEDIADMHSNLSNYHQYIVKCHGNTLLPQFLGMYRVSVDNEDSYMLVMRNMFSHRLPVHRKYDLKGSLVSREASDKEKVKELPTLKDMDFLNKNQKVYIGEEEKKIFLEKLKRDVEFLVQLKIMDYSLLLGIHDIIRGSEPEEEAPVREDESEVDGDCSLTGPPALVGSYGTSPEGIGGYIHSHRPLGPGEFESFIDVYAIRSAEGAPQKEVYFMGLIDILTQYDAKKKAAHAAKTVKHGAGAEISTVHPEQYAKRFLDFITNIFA
# Chain of UniProt Q15109 (whole entry, looked up): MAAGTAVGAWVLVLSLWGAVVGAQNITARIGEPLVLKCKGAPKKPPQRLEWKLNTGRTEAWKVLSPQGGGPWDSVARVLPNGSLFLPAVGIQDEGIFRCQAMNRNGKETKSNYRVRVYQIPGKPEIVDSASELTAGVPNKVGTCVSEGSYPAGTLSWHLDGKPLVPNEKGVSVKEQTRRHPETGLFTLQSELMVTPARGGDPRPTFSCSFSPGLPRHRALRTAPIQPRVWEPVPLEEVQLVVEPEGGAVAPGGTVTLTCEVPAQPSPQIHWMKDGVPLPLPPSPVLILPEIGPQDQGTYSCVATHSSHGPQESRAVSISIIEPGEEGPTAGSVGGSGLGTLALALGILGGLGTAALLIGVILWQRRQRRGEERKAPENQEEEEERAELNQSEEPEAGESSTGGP
# Chain of UniProt P10997 (whole entry, looked up): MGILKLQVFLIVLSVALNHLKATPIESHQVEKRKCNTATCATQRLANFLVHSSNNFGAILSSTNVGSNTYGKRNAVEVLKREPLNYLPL
# Chain of UniProt P49720 (whole entry, looked up): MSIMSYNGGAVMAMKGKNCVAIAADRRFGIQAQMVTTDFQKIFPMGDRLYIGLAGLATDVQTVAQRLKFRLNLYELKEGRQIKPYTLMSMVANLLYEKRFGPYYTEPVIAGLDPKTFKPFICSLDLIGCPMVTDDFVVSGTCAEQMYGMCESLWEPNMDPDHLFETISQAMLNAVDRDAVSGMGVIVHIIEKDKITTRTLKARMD
SMILES,target,assay,system,conditions,IC50
Cc1c(Cc2ccc(OC(C)(C)C(=O)O)cc2)c2ccc(C(=O)N[C@@H](C)c3ccc(C(C)C)cc3)cc2n1C,PPARA ligand-binding domain,"reporter gene, luciferase reporter","HEK293T, Gal4-PPARα LBD",,0.66 µM
Fc1ccc(Nc2nc(NC3CCCCC3)c3cc(C(F)(F)F)ccc3n2)cc1F,"ADRB2 (Homo sapiens, UniProt P07550, Q170L)","β-arrestin2 recruitment, antagonist, BRET",HEK293,"mutant Q170L, added: isoprenaline 1 µM",0.316 µM
O=C(Nc1ccc(F)cc1)Nc1ccc(C2=NNC(c3ccc(NC(=O)Nc4ccc(F)cc4)cc3)C2)cc1 (centres unmarked),"AGER (Homo sapiens, UniProt Q15109)",,,,33 µM
OC[C@H]1N[C@H](CCCCCOCC23CC4CC(CC(C4)C2)C3)[C@H](O)[C@@H](O)[C@@H]1O,GBA2,"inhibitor, 4MU-β-D-glucopyranoside",HEK293T homogenates overexpressing GBA2,,0.3 µM
CN(Cc1ccccc1)C(=O)c1ccccc1NC(=O)C(C(F)(F)F)C(F)(F)F,Chymotrypsinogen A,"enzyme activity, inhibitor, fluorescence",,,262 µM
COCCN(C)C(C)C(=O)NC(Cc1ccc(-c2ccccc2)cc1)B(O)O (centres unmarked),"Proteasome subunit beta type-3/PSMB7 (Homo sapiens, UniProt P49720+Q99436)","β2c trypsin-like activity, inhibitor",,"constitutive proteasome, added: Ac-KQL-AMC",> 10 µM
COc1ccc(Cl)cc1NC(=O)C(C(F)(F)F)C(F)(F)F,Chymotrypsinogen A,"enzyme activity, inhibitor, fluorescence",,,6.5 µM
O=C(COc1cccc2ccccc12)NCc1ccc(OP(=O)(O)O)c(OP(=O)(O)O)c1,"Signal transducer and activator of transcription 5A, SH2 (Homo sapiens, UniProt P42229)","ligand displacement, FP",,,32.5 µM
O=C1NC(=O)C(N2CCc3cc(Cl)ccc32)=C1c1ccccc1,Sensor histidine kinase AirS,"autophosphorylation, inhibitor, BODIPY-FL-ATPγS in-gel fluorescence",,lower bound of confidence interval,> 1000 µM
COc1ccc(Cl)cc1NC(=O)Nc1ccc(C(N)=O)cn1,CHEK1,"enzyme activity, inhibitor",,,0.0154 µM
O=C1C[C@H](c2ccc(O)cc2)Oc2cc(O)ccc21,"ALOX5 (Homo sapiens, UniProt P09917)","enzyme activity, inhibitor",,,> 10 µM
CC(C)C(O)C#Cc1ccc2[nH]c3c(c2c1)-c1nc(N)ncc1CC3 (centres unmarked),"PIP4K2C (Homo sapiens, UniProt Q8TBX8)","target engagement in cells, BRET",,,0.027 µM
Cc1c(Cc2cccc(OC(C(=O)O)C3CC3)c2)c2ccc(C(=O)NC(C)c3cccc(C(C)(C)C)c3)cc2n1C (mixture of isomers),PPARA ligand-binding domain,"reporter gene, luciferase reporter","HEK293T, Gal4-PPARα LBD",,1.39 µM
N#Cc1cnc(NC(=O)Nc2ccc([N+](=O)[O-])cc2)cn1,CHEK1,"enzyme activity, inhibitor",,,> 10 µM
COc1ccccc1/C=C1\C(=O)N(C)c2ccc(N(C)c3nc(C)nc4ccccc34)cc21,PIK3CG,"enzyme activity, inhibitor, ADP detection",,,0.157 µM
OC[C@@H]1[C@@H](O)[C@H](O)[C@@H](O)CN1CCCCCOCc1ccc(-c2ccc(Cl)cc2)cc1,GBA2,"inhibitor, 4MU-β-D-glucopyranoside",HEK293T homogenates overexpressing GBA2,,0.002 µM
Cc1cc(C)c(S(=O)(=O)N(CC(=O)O)c2ccc(Nc3ccnc(N4CCCC4)n3)cc2)c(C)c1,"CDK9 (Homo sapiens, UniProt P50750)","enzyme activity, inhibitor",,,> 100 µM
O=C(NCCCN1CCCC1=O)c1ccccc1NC(=O)C(C(F)(F)F)C(F)(F)F,Chymotrypsinogen A,"enzyme activity, inhibitor, fluorescence",,,12 µM
C/C1=C\CC/C(C)=C/CC(C)(C)/C=C/C1,"TRPV1 (Homo sapiens, UniProt Q8NER1, Y495Q)","ion current, inhibitor, patch clamp",,,22.5 µM
CC(C)=CCC/C(C)=C/CC/C(C)=C/COCCCCCN1C[C@H](O)[C@@H](O)[C@H](O)[C@@H]1CO,GBA2,"inhibitor, 4MU-β-D-glucopyranoside",HEK293T homogenates overexpressing GBA2,,0.1 µM
Cc1c(Cc2cc(Cl)cc(OC(C)C(=O)O)c2)c2ccc(C(=O)NC(C)c3ccc(C(C)(C)C)cc3)cc2n1C (centres unmarked),PPARA ligand-binding domain,"reporter gene, luciferase reporter","HEK293T, Gal4-PPARα LBD",,214 µM
OC[C@@H]1[C@@H](O)[C@H](O)[C@@H](O)CN1CCCCCOCc1ccc(-c2ccnc(F)c2)cc1,GBA2,"inhibitor, 4MU-β-D-glucopyranoside",HEK293T homogenates overexpressing GBA2,,0.004 µM
COC(=O)CC(c1cc2ccccc2n(C)c1=O)c1c(O)cc(O)c2c(=O)c(O)c(-c3ccc(O)c(O)c3)oc12 (centres unmarked),"B4GALT1 (Homo sapiens, UniProt P15291)","inhibitor, UDP-Glo luminescence",,,~6 µM and 6.2 µM
COCCNC(=O)c1ccccc1NC(=O)C(C(F)(F)F)C(F)(F)F,Chymotrypsinogen A,"enzyme activity, inhibitor, fluorescence",,,18 µM
COc1cc(-c2nn(C3CCC(N4CCN(C(C)=O)CC4)CC3)c3ncnc(N)c23)ccc1NC(=O)c1cc2ccccc2n1C (centres unmarked),"ERBB3 (Homo sapiens, UniProt P21860)","cell-free assay, TR-FRET",,,0.068 µM
OC[C@H]1[C@@H](O)[C@H](O)[C@@H](O)CN1CCCC/C=C\C12CC3CC(CC(C3)C1)C2,GBA2,"inhibitor, 4MU-β-D-glucopyranoside",HEK293T homogenates overexpressing GBA2,,0.008 µM
COc1ccc(N(C)C2=C(c3ccc(F)cc3)C(=O)NC2=O)cc1,Sensor histidine kinase AirS,"autophosphorylation, inhibitor, BODIPY-FL-ATPγS in-gel fluorescence",,lower bound of confidence interval,> 1250 µM
CCCCCCCCCCCCCC(=S)NCCCC[C@H](NS(C)(=O)=O)C(=O)N[C@H](C)C(=O)N[C@@H](CCCNC(=N)N)C(N)=O,"SIRT2 (Homo sapiens, UniProt Q8IXJ6)","enzyme activity, inhibitor",,,0.09 µM
COc1c(Cl)cccc1Nc1c(-c2ccncc2C#C[C@@]2(C)CCCN2C(=O)/C=C/CN(C)C)[nH]c2c1C(=O)NCC2,"NLK (Homo sapiens, UniProt Q9UBE8)",,,,0.21 µM
Cc1ccc(S(=O)(=O)N2CC(NC(=O)c3ccccc3)C2=O)cc1 (centres unmarked),Chymotrypsinogen A,"enzyme activity, inhibitor, fluorescence",,,217 µM
CNC(=O)C[C@H](Cc1ccc(C#N)cc1)NC(=O)c1cc(-c2ccc(CN[C@H](C)c3ccc(C)cc3)o2)ccc1Cl,"ATPase family AAA domain-containing protein 2, bromodomain (ATAD2, Homo sapiens, UniProt Q6PL18)","binding, TR-FRET",,"added: peptide, histone H4, tetra-acetylated",15.5 µM
OC[C@@H]1[C@@H](O)[C@H](O)[C@@H](O)CN1CCCCCOCc1ccccc1,GBA2,"inhibitor, 4MU-β-D-glucopyranoside",HEK293T homogenates overexpressing GBA2,,0.001 µM
COc1cc(/C=C/C(=O)Oc2ccc(C(F)(F)F)c(C(F)(F)F)c2)ccc1O,"SRD5A1 (Homo sapiens, UniProt P18405)","enzyme activity in cells, inhibitor",,,10.1 µM
COc1cc([C@@H]2O[C@@H](c3cc(OC)c(O[C@@H]4O[C@H](CO)[C@@H](O)[C@H](O)[C@H]4O)c(OC)c3)[C@H](CO)[C@H]2CO)cc(OC)c1O,"PNLIP (Sus scrofa, UniProt P00591)","enzyme activity, inhibitor",,,~40.7 µM and 40.7 µM
NCCCCOC(=O)c1ccc(/N=N/c2ccccc2)cc1,"IAPP (Homo sapiens, UniProt P10997)","ThT displacement, ThT fluorescence",,"pH 7.4, preformed target-ThT complex, added: 5 µM ThT",3.5 µM
Cc1c(Cc2ccc(Cl)c(O[C@H](C)C(=O)O)c2)c2ccc(C(=O)NCc3ccc(C(C)(C)C)cc3)cc2n1C,PPARA ligand-binding domain,"reporter gene, luciferase reporter","HEK293T, Gal4-PPARα LBD",,3.94 µM
CC1C(=O)N(S(=O)(=O)c2ccc(C#N)cc2)C1c1ccccc1 (racemic),Chymotrypsinogen A,"enzyme activity, inhibitor, fluorescence",,,2.5 µM
COc1cc(/C=C/c2cc(-[c-]3cccc3)[nH]n2)ccc1O.[Fe+2].c1cc[cH-]c1,"APP (Homo sapiens, UniProt P05067)","amyloid aggregation, inhibitor, fluorescence",,pH 6.9,13 µM
Cc1c(Cc2cccc(O[C@H](C)C(=O)O)c2Cl)c2ccc(C(=O)N[C@@H](C)c3ccc(C(C)(C)C)cc3)cc2n1C,PPARA ligand-binding domain,"reporter gene, luciferase reporter","HEK293T, Gal4-PPARα LBD",,27.6 µM
OC[C@@H]1[C@@H](O)[C@H](O)[C@@H](O)CN1CCCCCOCc1ccc(-c2cc(C(F)(F)F)cc(C(F)(F)F)c2)cc1,GBA2,"inhibitor, 4MU-β-D-glucopyranoside",HEK293T homogenates overexpressing GBA2,,0.015 µM
Cc1nn(-c2cccc(N)c2)c(=O)c2cnc(Nc3ccc(N4CCNCC4)cc3)nc12,"NEK1 (Homo sapiens, UniProt Q96PY6)","enzyme activity, inhibitor",,,> 10 µM
O=C(Nc1cccnc1)C(C(F)(F)F)C(F)(F)F,Chymotrypsinogen A,"enzyme activity, inhibitor, fluorescence",,,83 µM
Cc1c(Cc2cccc(OC(C)C(=O)O)c2)c2ccc(C(=O)N[C@@H](C)c3cccc(C(F)(F)F)c3)cc2n1C (some centres unmarked),PPARA ligand-binding domain,"reporter gene, luciferase reporter","HEK293T, Gal4-PPARα LBD",,6.14 µM
CC(C)(C)COCCOCCN1C[C@H](O)[C@@H](O)[C@H](O)[C@@H]1CO,GBA2,"inhibitor, 4MU-β-D-glucopyranoside",HEK293T homogenates overexpressing GBA2,,0.0023 µM
COc1ccc(NC(=O)C(C(F)(F)F)C(F)(F)F)cc1,Chymotrypsinogen A,"enzyme activity, inhibitor, fluorescence",,,4.7 µM
Cc1c(Cc2cc(F)cc(OC(C)(C)C(=O)O)c2)c2ccc(C(=O)N[C@@H](C)c3cc(F)cc(C(C)(C)C)c3)cc2n1CC(C)C,PPARA ligand-binding domain,"reporter gene, luciferase reporter","HEK293T, Gal4-PPARα LBD",,> 100 µM
O=C1/C(=N\c2ccccc2Br)c2ccccc2N1Cc1ccc([N+](=O)[O-])cc1,PIK3CG,"enzyme activity, inhibitor, ADP detection",,,0.00032 µM

# For quick reference, copied from above:
SMILES,target,assay,system,conditions,IC50
Cc1c(Cc2ccc(OC(C)(C)C(=O)O)cc2)c2ccc(C(=O)N[C@@H](C)c3ccc(C(C)C)cc3)cc2n1C,PPARA ligand-binding domain,"reporter gene, luciferase reporter","HEK293T, Gal4-PPARα LBD",,0.66 µM
Cc1nn(-c2cccc(N)c2)c(=O)c2cnc(Nc3ccc(N4CCNCC4)cc3)nc12,"NEK1 (Homo sapiens, UniProt Q96PY6)","enzyme activity, inhibitor",,,> 10 µM
COc1cc(/C=C/C(=O)Oc2ccc(C(F)(F)F)c(C(F)(F)F)c2)ccc1O,"SRD5A1 (Homo sapiens, UniProt P18405)","enzyme activity in cells, inhibitor",,,10.1 µM
OC[C@@H]1[C@@H](O)[C@H](O)[C@@H](O)CN1CCCCCOCc1ccc(-c2ccc(Cl)cc2)cc1,GBA2,"inhibitor, 4MU-β-D-glucopyranoside",HEK293T homogenates overexpressing GBA2,,0.002 µM
